Measurements pooled from the literature.
Each numbered part is a random draw from the data of one study; scales do not carry over between parts. Substitutions count along the parent as printed.

Study 1 — method: protein binding microarray; form: double-stranded DNA, one strand shown; matrix: in vitro; concentration: not given; baseline: not given; reading: higher = stronger binding
Target: Histone acetyltransferase KAT6A, winged helix 1, GST fusion (KAT6A, Homo sapiens, UniProt Q92794, residues 1-85)
Setting: 8-mer, flanks averaged, mean of 2 arrays, mostly near background
Target sequence (chain): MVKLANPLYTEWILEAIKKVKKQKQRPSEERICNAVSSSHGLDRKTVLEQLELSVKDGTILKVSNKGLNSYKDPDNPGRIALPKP
| Sequence | E-score |
| --- | --- |
| GGACTCCC | 0.00901 |
| TCGTCACA | -0.0307 |
| AACCGGAC | 0.0577 |
| AGAGACTG | -0.103 |
| CGACTGCG | 0.255 |
| TCAGCCAA | -0.185 |
| AATACAGC | -0.117 |
| CTAATTTA | -0.0291 |
| CGATACTC | 0.0558 |
| ACGGCCTA | 0.295 |
| CCGACATC | 0.125 |
| GTCAGCTA | -0.0734 |
| GTGGTCCA | -0.114 |
| GCAAAGAC | 0.00558 |
| CTAACTAA | -0.00874 |
| CCGCGAAG | 0.315 |
| CTGACGCC | 0.15 |
| GGTCTTAA | -0.0356 |

Study 2 — method: RNA Bind-n-Seq; form: RNA; matrix: in vitro; concentration: 100 nM; baseline: input RNA pool; reading: higher = stronger binding
Target: RING finger protein unkempt homolog, zinc fingers 1-6, SBP tag (UNK, Homo sapiens, UniProt Q9C0B0, residues 30-357)
UniProt Q9C0B0, sequence (30-357, looked up): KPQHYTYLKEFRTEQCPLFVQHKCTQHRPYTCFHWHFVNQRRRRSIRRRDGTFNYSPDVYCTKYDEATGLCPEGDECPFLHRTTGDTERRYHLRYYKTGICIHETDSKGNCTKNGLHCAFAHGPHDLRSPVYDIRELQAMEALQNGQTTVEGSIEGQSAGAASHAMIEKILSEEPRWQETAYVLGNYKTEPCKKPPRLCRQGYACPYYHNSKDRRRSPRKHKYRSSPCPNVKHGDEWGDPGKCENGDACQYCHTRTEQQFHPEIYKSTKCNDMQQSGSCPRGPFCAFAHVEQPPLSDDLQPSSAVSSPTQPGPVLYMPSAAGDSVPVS
Setting: RNA with constant flanks, vertebrate orthologous sites, ends assumed
Constant ends, left off below: GGGAGUUCUACAGUCCGACGAUC … CAACAGAGGAUUGAGCAUCA
| Sequence | bound/input enrichment |
| --- | --- |
| ACAUGCUCUCUGCAGGAAGCUGCUAGCUGCUUAGCAUUCAUUUGAUCCGUAAUAUUGAGAAGAAAGGUUUGUGGUGGUGUUUGUGUUUUUUUUUUUUAAGAUAUUGAGACUUAACUAAAA | 1.13 ratio |
| ACCCUCAACUAGCUUUGAACAAUGGUACUAUUGAGCUGGUUCAUAAGUUGGGAUUGAGAAUUCAGGUCUUUGAUUUCUCUACUGCUGCUGACUGGAGAGACAAAUUUAUAACCAGGAACA | 0.534 ratio |
| AAUCUUCUACUUAAAAUUGGUAUUUUCAAACAAUAGGGUGGUUUUUUUUUUUUGAUAGUUCAGUAUAUCUGGUUUCUACAUGGAAGACUAAACUCAUGCUUGUUGCUAAUCGUGGUUUUU | 0.653 ratio |
| UCCAGUCUUAUACUUAUGGUUGGCCUCAAAUCUGUUGCAUUUAUGACAAUGUAUUAUAUCUAGUUAAUUUGAGUUUAAUAUUUUUUAUUAGCCUGUAAAUAAAGAUGGCAUCUUCUACAU | 0.411 ratio |
| UGCUUUUAAAUAAACGUCUGUAAAUGUAUAUUGAGAGAAUUGAAGUAUUUAUAAACAGAGCGAUUUAUUUAAGGGAAAGGUCAUUCCUCUUUCAUACGUGAUCUGUGUUAAUUCCAUUCC | 0.223 ratio |
| UUAUGGCCGCUUCUCCCCUGCCUCAGUGAGGUAAAGUCUCCCUUGGCAUUUGGUUGGUACCAGAGCCAGCCAUACCUAAGACAUGUUUCCACAUUUCUCUCACACUCGUAGUCAUCUUCG | 0.327 ratio |
| AAACGCAAUGGUUGAAGGCUCUGAGCUCAAAAAGAUUCGAUCCAACUCUAGGGUGUAUCACCGAUAUUUUCUUUUAGAUGCGGAUAUGCAAUCUCUACGCUGGGAACCUUCAAAAAAGGA | 0.25 ratio |
| ACCCCCCACUCCCUGUGAGAGGGAAUGGGGGAAGCCUGAUGACCCUCAGCUGUUCCAAUCUAGUAUUUUUUUUUCUUUUUUAAAAUUACUGUAUUUAUUAUGACGAUGGUGACUCCCCAG | 1.94 ratio |
| UUCAGGCACAACUGACUGGUUCACAGCAUUCCUUACAUAGUUACCUAGCAAAUACAGGUGUGGUUAAUUUUCAGGAAACAACCAGGCAGUCAUCUUUACCUUGUAGCCCAGUCAGAGAUU | 0.996 ratio |
| GUUGUGACCCAUUUAACAUACACAAAAAACUAGCCAAAAAAAAUUUACAUGUAAUUGACUUAGAUGAUGCCACUUUCCUGAGUGCAAAAUUUGGAAGACAGCUUGUACCUGGUUGGAAGC | 2.45 ratio |
| AAUGACAGCUAUGCAGCAUCAGUUUUCAAUAUUGUUGAAAUUGUUCUUGGAUUUGUACUUGUCACUUUGUUCACUUCCCUAAAAACAAAAUUUAAAUCUGGAUUUAAGGGAGUUAAAUCU | 0.197 ratio |

Study 3 — method: protein-binding microarray; form: double-stranded DNA, one strand shown; matrix: in vitro; concentration: not given; reading: higher = stronger binding
Target: Protein C-ets-1 (ETS1, Homo sapiens, UniProt P14921, residues 1-441, Y397A, full length assumed)
UniProt P14921, sequence (whole entry, unmodified, looked up): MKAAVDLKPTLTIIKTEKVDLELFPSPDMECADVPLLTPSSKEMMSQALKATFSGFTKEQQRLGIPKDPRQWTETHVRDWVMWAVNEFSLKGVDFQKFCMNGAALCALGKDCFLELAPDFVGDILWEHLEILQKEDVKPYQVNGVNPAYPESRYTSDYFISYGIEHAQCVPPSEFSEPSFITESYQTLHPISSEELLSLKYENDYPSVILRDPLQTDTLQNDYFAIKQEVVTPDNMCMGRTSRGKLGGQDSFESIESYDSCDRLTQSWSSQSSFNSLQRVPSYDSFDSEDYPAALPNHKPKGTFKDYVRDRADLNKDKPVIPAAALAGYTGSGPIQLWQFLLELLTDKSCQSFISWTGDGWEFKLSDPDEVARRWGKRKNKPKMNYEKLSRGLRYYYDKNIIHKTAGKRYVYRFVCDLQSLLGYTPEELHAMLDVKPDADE
Setting: k-mer, scored over probes, only values ≥0.25
| Sequence | E-score |
| --- | --- |
| TGCCACAA | 0.305 |
| GCCGCAAA | 0.268 |
| CCGCAAAC | 0.311 |
| GCCATATA | 0.277 |
| ACCGGATG | 0.404 |
| AAACGACA | 0.371 |
| TACAAACA | 0.289 |
| TCGACAAA | 0.326 |
| CAAATATG | 0.251 |
| ACATTTGC | 0.291 |
| GACAGTGC | 0.259 |
| AGGGGAGG | 0.329 |
| GCGCCAAA | 0.317 |
| CTAGCAAA | 0.316 |
| ATTGGCAC | 0.326 |
| GTCAAATA | 0.301 |
| AATTTCCG | 0.392 |
| ATGACAAA | 0.387 |
| AGCAAACA | 0.298 |
| CCGGAACG | 0.257 |
| GGATGTCA | 0.314 |
| AATGACAT | 0.285 |
| AATATACA | 0.292 |
| CGCTTCCG | 0.409 |
| ATTTGGCA | 0.328 |

Study 4 — method: RNA Bind-n-Seq; form: RNA; matrix: in vitro; concentration: 365 nM; baseline: no-protein control; reading: higher = stronger binding
Target: RNA binding protein fox-1 homolog 2, RRM domain, GST-SBP tag (RBFOX2, Homo sapiens, UniProt O43251-10, residues 100-194)
Setting: natural RNA segment, single round, ends assumed
Constant ends, left off below: GGGAGUUCUACAGUCCGACGAUC … UGGAAUUCUCGGGUGCCAA
Residues (chain): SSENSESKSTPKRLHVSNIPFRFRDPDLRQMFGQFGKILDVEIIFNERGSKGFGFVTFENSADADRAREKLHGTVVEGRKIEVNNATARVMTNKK
| Sequence | RBNS enrichment (R) |
| --- | --- |
| CUGGCUGAUGCUCAGAGGCCUCCUUAGAGAGGACACUCACUCCCCUCCCACCAGCUGGAUGCCCAUUUCUGAGCUCAGUCACUGAAGUGAGAGUGUGCUCCCCCAAGGGA | 0.291 |
| UCAAAAAACCUUUACAGUUAGCAGGGAUGUUCCUUACCAAGGAUUUUUAGCCCCAAAUCUCUCAUAUUCGCUAGUGUUUAAAAGGCUAAGAAUAGUGGGGCCCAGCCGAU | 0.498 |
| CAUCCUACAUUCUGACCUUCAAAGAGAAGUGAGCGCAUCCCAGAAACAGAGAUCAGAUGAAGAUAACAAGCCAGAUGCUGGUCCUGAUGCUGCCGGCAAGGAGAGUGCAG | 0.615 |
| GCAGGGAGGAGUGGUACUUAAGCUCCCCUGCCUUAACCUGGGACCAACCUGACCUAACCUAGGAGGGCUCUGAGCCAACCUUGCUCUUGGGGAAGGGGACAGAUUAUGAA | 0.35 |
| UGAAGAACCCUUGUGAAGUAACCAGGAGGAAUGGGGAAAGAAGCAAGUUGGGCAGGAUAUGGCCUACUUCCAUAGGCUUUUCUUUUUUCAGGUUUGAUGUAAGCAUGGGC | 2.24 |
| CUUGCGUUGAUACUUUGCCCCAGAAAGGCCUGGGAUUCAUUCUGGUUCUUAUCAGGGUGUGUCCACACUCUGCUCACAGGUGGAUCCACGGCUUUCCAGUGCGGAGAGUC | 0.265 |
| ACAAAAAAGCCCCCACCAAUGAGUUCUACGCAUGAAGCUUCCUCCCGCGAGCGCUGCUUGGACUUAUUGGGGAGAGGAGUGGAGGGUUGUGGGUGGCGGGCGUUGGCAGA | 7.96 |
| GUCAAAAACCUUUAUAUUCUGUUCUUAAUAAUGUUUGUGCCAACCUAUAUCCCAUGUAAGGGAUCUGGGGAGGAGGCAUGUGUCUACAACCAUACCUUUUUGCACUAUGG | 1.53 |
| AGUUCUUAAUUUUAAACUGUCAGUUCUUGAGAUAUACCGUGUGAAGCUAUUGUCAGCUUCUCUAUUUCAAAAUGCAAUCAGCAUAUAACUAUAUUGAUAUUAGAAGAUAU | 0.429 |
| CCUAAGGGACCUCGCUCCAGCUGGUUGGGCACAGCAGGCUCCUGCCCUGGUGCUUUCAGCUUCCCCCAGCUAGGCCUGACCCUGGCUCUUGCUGUAGGCCACAUGCUGAA | 0.236 |
| UACAUGCAAAGCAAUAUCUUGUUCAGGUUAGUACCCGCAAAACGGGACAUAGUAUGUGACAAUCUGCAUCGAUCAUGGACUACUAAAUGCCUUUACAUAGAAGGGCUCUG | 0.315 |
| GUUUUAACGAUUUGUUUCUCCUGCUCCUCUUCUGUCAGACCUGACCCCACACAAACCUGUCCCCUCGGUUGUGUUGAAGUCCCCUGGACAGUGGGCAGGGGUGGCAGAGG | 0.283 |

Study 5 — method: universal PBM; form: double-stranded DNA, one strand shown; matrix: in vitro; concentration: not given; reading: higher = stronger binding
Target: Sal-like protein 4, full length isoform B (SALL4, Homo sapiens, UniProt Q9UJQ4-2, residues 1-616)
Setting: 8-mer, flanks averaged, mean of replicates
| Sequence | E-score |
| --- | --- |
| TCTGCGAA | -0.0551 |
| CTGCAAGA | 0.0323 |
| GCTCACAA | -0.0505 |
| CCGATCTA | -0.059 |
| CGGTTCCC | -0.226 |
| GCACAGCC | -0.304 |
| GGGATACC | -0.313 |
| GATCCGAC | -0.0731 |
| TCGACTAA | 0.035 |
| TAACGCAA | 0.164 |
| ACGGTATA | -0.0314 |
| AACCTGTG | -0.0673 |
| CAACGCGC | -0.111 |
| CAGCAGGC | -0.232 |
| AGTAGAGA | 0.0384 |
| CCTGGGTC | -0.289 |
| AAATATTG | 0.439 |
| CTCACTTA | 0.0285 |
| AGCTCAAC | -0.178 |
| TCGAGGCA | -0.0367 |
| CTTAACAC | 0.0972 |
| AGAAAGGA | 0.00351 |
| ACTAGTAC | -0.0117 |
| TCTGTGCA | 0.0279 |
| CTTCCCTC | -0.0528 |

Study 6 — target: CCNA2, cyclin fold, Cln2 fusion (human); method: yeast growth competition, sequencing; matrix: yeast; setting: strong parent motif; baseline: not given; reading: higher = stronger binding
Starting sequence: USP37 docking peptide (human); PSAKRSLGFLPQP; partner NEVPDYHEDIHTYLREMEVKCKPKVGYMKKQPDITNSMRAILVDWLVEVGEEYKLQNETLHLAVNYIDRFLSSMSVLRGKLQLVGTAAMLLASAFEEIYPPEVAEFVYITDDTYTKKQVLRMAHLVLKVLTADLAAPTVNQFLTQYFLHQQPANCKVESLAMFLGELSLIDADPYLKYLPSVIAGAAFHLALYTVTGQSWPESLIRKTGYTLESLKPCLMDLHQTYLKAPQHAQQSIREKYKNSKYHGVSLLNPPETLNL
| Variant | normalised enrichment score |
| --- | --- |
| R5A | 0.421 |
| S2A | 1.8 |
| Q12A | 2.84 |
| L10A | 2.94 |
| K4A | 0.901 |
| L7A | 0.169 |

Some of these lines once more (study 5):
| Sequence | E-score |
| --- | --- |
| AGCTCAAC | -0.178 |
| TCGAGGCA | -0.0367 |
| CTTAACAC | 0.0972 |
| AGAAAGGA | 0.00351 |
| ACTAGTAC | -0.0117 |
| TCTGTGCA | 0.0279 |
